Results from different studies.
Each numbered part is a random draw from the data of one study; scales do not carry over between parts.

Study 1
Target: Fragile X messenger ribonucleoprotein 1, C-terminal low-complexity region (Fmr1, Mus musculus, UniProt P35922)
Technique: RNA Bind-n-Seq
Form: RNA
Medium: in vitro
Tested at: 200 nM
Setting: whole 134-nt RNA, ends assumed
Added: 150 mM KCl
Reference: input library
Direction: higher = stronger binding
For `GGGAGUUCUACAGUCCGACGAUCUCUCUUGCUCAAGUUUUCUCUCACAGAUGACAGCCACCUACCACAUAACAUGACCAGCAAACGGACUGUUCCUAGUCCAGAGGGCCUUGCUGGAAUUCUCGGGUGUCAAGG`, the log2 enrichment was 0.618.
With `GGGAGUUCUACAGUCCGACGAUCUUGUGGAAAACCCACAUGCUCCUCAGAAAGAUGAUGCCCUGGUGAUCACACACUACAACCGGACCCGACAGCAGGAAGAGAUGCUGGGGCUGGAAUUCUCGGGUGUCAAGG` the log2 enrichment was -0.125.
`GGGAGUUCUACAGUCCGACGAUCCACAGACAACACGCACCCACACAGACACAGAAAGAAGGGGUUGGGAUGGGGACAGGGUGCACAGCAGGGCGGGGUAGGACCCCAGCCCCUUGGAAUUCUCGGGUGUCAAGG` gave a log2 enrichment of 1.15.
With `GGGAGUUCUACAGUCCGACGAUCGCAGGAAGUAAAAACAAAUGGAAAUGCUUCGGAUAGUGGCAGGGGUGGGGGUUGCUAAGGCAAGGGUGGGAUGGGAGUGGGUAAAGAGUUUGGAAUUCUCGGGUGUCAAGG` the log2 enrichment was 0.49.
The log2 enrichment of `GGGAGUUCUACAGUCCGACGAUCUCAAGUCCUGUGCUACACAUCGUAUGUACCGAAUCGGUGGUUUUUGGAAAAAGGAAAGUAUUAUGUUACGCCGUUCGGAUCUGCACUUCCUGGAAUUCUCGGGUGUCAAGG` is reported as -0.461.
The log2 enrichment of `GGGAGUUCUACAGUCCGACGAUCUGGGAGGUGGAUUUUCUUUAUUUUUUUAGCUCAUUUCCAGGGGUGGGAAUUUUUUUUUAAUAUGUGUCAUGAAUAAAGUUGUUUUUGAAAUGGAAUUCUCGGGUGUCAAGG` is reported as 0.241.
With `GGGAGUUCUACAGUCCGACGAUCCUCAAGUCCUGUGCUACACAUCGUAUGUACCGAAUCGGGGCGGGGCGGGCGGGAAAGUAUUAUGUUACGCCGUUCGGAUCUGCACUUCCAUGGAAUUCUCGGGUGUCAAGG` the log2 enrichment was 1.01.
`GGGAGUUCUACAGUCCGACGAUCUUCCUCAAGUCCUGUGCUACACAUCGUAUGUACCGAAUCGGUGGAGGUGGAAAGUAUUAUGUUACGCCGUUCGGAUCUGCACUUCCAGCAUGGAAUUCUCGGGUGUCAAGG` gave a log2 enrichment of -0.573.
With `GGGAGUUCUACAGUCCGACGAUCAGUCCUGUGCUACACAUCGUAUGUACCGAAUCGGAAAAAGGGAAAAAGGGAAAAAGGAAAGUAUUAUGUUACGCCGUUCGGAUCUGCACUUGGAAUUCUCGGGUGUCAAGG` the log2 enrichment was -0.683.

Study 2
Target: Sal-like protein 4, full length isoform A (SALL4, Homo sapiens, UniProt Q9UJQ4, residues 1-1053)
Chain of UniProt Q9UJQ4 (whole entry, looked up): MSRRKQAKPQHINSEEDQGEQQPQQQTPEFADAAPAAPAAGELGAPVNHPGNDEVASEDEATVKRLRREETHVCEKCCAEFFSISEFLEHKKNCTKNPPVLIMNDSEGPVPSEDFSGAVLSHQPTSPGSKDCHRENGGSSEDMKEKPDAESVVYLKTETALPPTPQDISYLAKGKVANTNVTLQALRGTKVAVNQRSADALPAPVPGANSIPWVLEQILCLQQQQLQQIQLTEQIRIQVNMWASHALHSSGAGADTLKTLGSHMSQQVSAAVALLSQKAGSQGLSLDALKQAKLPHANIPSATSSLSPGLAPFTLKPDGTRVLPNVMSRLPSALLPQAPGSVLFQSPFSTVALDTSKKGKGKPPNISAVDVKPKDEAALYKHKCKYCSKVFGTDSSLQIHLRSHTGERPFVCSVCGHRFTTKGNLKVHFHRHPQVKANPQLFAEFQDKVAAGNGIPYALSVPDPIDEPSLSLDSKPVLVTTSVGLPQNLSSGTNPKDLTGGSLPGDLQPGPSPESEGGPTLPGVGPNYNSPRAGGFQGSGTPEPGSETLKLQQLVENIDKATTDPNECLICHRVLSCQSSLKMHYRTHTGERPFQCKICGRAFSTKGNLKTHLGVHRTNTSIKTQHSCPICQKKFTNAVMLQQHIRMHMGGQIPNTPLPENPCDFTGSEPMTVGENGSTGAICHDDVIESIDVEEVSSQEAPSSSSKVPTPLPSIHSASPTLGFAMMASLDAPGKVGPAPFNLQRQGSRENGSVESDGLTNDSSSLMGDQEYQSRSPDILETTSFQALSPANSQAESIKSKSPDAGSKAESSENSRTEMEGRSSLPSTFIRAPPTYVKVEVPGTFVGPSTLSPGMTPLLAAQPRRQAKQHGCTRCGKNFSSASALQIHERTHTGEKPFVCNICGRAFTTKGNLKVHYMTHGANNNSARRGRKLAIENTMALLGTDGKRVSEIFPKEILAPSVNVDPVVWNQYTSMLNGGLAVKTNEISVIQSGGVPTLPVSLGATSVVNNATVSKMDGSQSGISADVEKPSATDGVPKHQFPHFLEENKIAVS
Technique: universal PBM
Form: double-stranded DNA, one strand shown
Medium: in vitro
Tested at: 600 nM
Setting: 8-mer, flanks averaged, mean of replicates
Direction: higher = stronger binding
`ACCTGGTA` has an E-score of -0.174.
`AGACACTG` gave an E-score of -0.135.
For `CTGTTTAA`, the E-score was 0.0792.
`ACTCTGAG` gave an E-score of -0.0843.
`AGATTCCA` has an E-score of 0.0111.
For `CCGGGCAA`, the E-score was -0.329.
The E-score of `ACCAAATC` is reported as -0.0818.
For `ATGTTTTG`, the E-score was 0.254.
The E-score of `CGTCCGGC` is reported as -0.28.
`GTAGATGA` has an E-score of 0.188.
With `CAGACTCG` the E-score was -0.0812.
`ACAACAGA` gave an E-score of 0.0648.
The E-score of `ACAAGGAC` is reported as -0.126.
With `TCGGTGCA` the E-score was -0.193.
With `CCCCACTC` the E-score was -0.103.
`AACTGCTC` has an E-score of -0.094.
`CACTGAGC` gave an E-score of -0.177.
`ATAGCCTA` has an E-score of 0.151.
With `GAAATAAC` the E-score was 0.23.
With `AAGACCAC` the E-score was -0.137.
`CGGCCGAG` has an E-score of -0.22.
`ATATTACC` gave an E-score of 0.384.
The E-score of `AACGTCTA` is reported as 0.137.
The E-score of `CTCGATAA` is reported as 0.138.
`CGCAAGGC` gave an E-score of -0.215.

Study 3
Target: Histone acetyltransferase KAT6A, winged helix 1, GST fusion (KAT6A, Homo sapiens, UniProt Q92794, residues 1-85)
Technique: protein binding microarray
Form: double-stranded DNA, one strand shown
Medium: in vitro
Tested at: not given
Setting: 8-mer, flanks averaged, mean of 2 arrays, mostly near background
Reference: not given
Direction: higher = stronger binding
Residues (chain): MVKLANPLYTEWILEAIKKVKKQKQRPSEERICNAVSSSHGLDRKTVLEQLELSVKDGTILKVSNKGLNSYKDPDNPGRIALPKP
With `ACTCGTTC` the E-score was -0.228.
For `CTAGGCGC`, the E-score was 0.304.
`AACACCTT` gave an E-score of -0.0815.
For `AACCGAAT`, the E-score was 0.0314.
The E-score of `ACTGACCG` is reported as 0.231.
For `CGCACCCG`, the E-score was 0.373.
For `AGACATCC`, the E-score was -0.254.
For `AAAAAGCA`, the E-score was -0.22.
With `CCTTGGCG` the E-score was 0.0986.
The E-score of `CGGGCCTA` is reported as 0.224.
`GACCGCTA` has an E-score of 0.248.
The E-score of `CGGGCTAA` is reported as 0.27.
With `AACGGGTA` the E-score was 0.221.
`CTACTCGC` gave an E-score of 0.152.
With `TGCCGGCA` the E-score was 0.409.
With `CACTTAGA` the E-score was -0.13.
The E-score of `ATGGAAGC` is reported as -0.0855.
`ACGGTCCG` gave an E-score of 0.304.
The E-score of `AACCGTGC` is reported as 0.0555.
`ATTCATAG` has an E-score of -0.0805.

Study 4
Target: RING finger protein unkempt homolog, zinc fingers 1-6, GST-SBP tag (UNK, Homo sapiens, UniProt Q9C0B0, residues 30-357)
Chain of UniProt Q9C0B0 (30-357, looked up): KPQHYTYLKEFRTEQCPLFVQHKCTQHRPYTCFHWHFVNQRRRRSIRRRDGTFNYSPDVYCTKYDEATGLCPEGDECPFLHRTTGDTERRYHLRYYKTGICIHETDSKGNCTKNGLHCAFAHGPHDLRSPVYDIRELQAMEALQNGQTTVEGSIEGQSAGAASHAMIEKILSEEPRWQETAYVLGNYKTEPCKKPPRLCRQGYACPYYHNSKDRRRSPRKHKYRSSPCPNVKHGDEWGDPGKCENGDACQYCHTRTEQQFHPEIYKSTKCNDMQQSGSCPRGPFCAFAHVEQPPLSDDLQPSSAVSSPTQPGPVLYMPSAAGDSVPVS
Technique: RNA Bind-n-Seq
Form: RNA
Medium: in vitro
Tested at: not given
Setting: RNA with constant flanks, human-mouse chimeric sites, ends assumed
Reference: input RNA pool
Direction: higher = stronger binding
The bound/input enrichment of `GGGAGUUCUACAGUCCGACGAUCAAAGCCCAAGUAUUUUGAAAAAACUCGAACAGAUUUGACAAGGGUAGCCAGCUUGGAGUCUAGCAACUUGCCAAUGUUGCUUACCAACUGGGGGCUUGUUUUUCUUUUCUUCUUUCAAAUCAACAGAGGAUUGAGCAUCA` is reported as 0.182 ratio.
`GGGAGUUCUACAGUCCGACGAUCUUGCUACUGACUCCCUGGGUUAAAUUCCUGUGGGAAUCAUACAGGCAGUGUUUGGACCUUCUUCGAAACAAUUCUAGAGUAGAGCGCCUUUACCAUGAUAUCGCCCAACAAGCUUUCAAACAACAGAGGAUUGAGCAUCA` has a bound/input enrichment of 0.177 ratio.
`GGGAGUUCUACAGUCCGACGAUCCACACACUCUUCUGCGGGACCCUCAUCCUGCAGGCCCGGGCCUAUGUGGGACCCCGUGUCCUGGCAGUGGUGACCCGCACAGGGUUCUGCACGGCAAAAGGGGGCCUGGUGAGCUCCAUCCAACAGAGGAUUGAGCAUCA` has a bound/input enrichment of 0.0744 ratio.
`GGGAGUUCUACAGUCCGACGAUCAAAGUGAUGACUAUGUUUGUACAGCGACAGGUAUUUUCGGAGAGCAAAGAUGAGAUUGCGUUAGUCCUCUAUGGCACAGAUGGCACUGAUAAUGCCCUUUCUGGUGGGGACCAGUAUCAGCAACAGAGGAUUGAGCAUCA` gave a bound/input enrichment of 0.306 ratio.
For `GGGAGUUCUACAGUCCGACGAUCUACUACUAUGAUGGUGAUAUUGGAAAUUAUUAUUAUGGCCAGGGUCAUCCCAUGAAGCCUCAUAGAAUCCGGAUGACUCAUAACUUGCUGCUAAAUUAUGGCUUAUACCGAAAAAUGGAACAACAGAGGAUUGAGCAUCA`, the bound/input enrichment was 0.2 ratio.
`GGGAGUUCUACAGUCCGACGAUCCUUAAUGUUAAUAUUUUUGAAUAAAUGAAGCUAAAAUGUCUGCUUUUGGUACAACACGCAUUAAUAAAAGGUUAAGUUUUGUUUUCCCUCCACUGAAUAUUUAACAUCUCAGAAAAAAACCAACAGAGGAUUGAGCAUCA` has a bound/input enrichment of 0.436 ratio.
`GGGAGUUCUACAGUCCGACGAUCCGGAGCCCUCCUCUCCCACAGGCCCAAGAUAUAACCCACCAGUGCCUUUUGUCUUCCUGUCAGCUCUAAUCAAUCAUCCUGUCCUCUCACGCCCACACUCCCCAGCCAAAGUGGGGAGGGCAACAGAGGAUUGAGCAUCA` has a bound/input enrichment of 0.461 ratio.
`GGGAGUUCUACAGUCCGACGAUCAAAGAACCUCUCUCUGAUGAAGAUGAGGACAGUGAUGAUGAUGUUGAACCCAUUUCUGAAUUUCGAUUUGUGCCCAGUGAUAAAUCAGCAUUGGAGGCGAUGUUCACAGCAAUGUGUGAGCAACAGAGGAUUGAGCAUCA` gave a bound/input enrichment of 0.212 ratio.

Excerpt of the above (study 2):
`CGGCCGAG` has an E-score of -0.22.
The E-score of `ACCAAATC` is reported as -0.0818.
`CGCAAGGC` gave an E-score of -0.215.
`ATATTACC` gave an E-score of 0.384.
